Published values gathered from unrelated publications.
Each numbered part is a random draw from the data of one study; scales do not carry over between parts. Several values in a cell are separate wells, animals, samples, runs or records.

Sample 1 — host: mouse; medium: microsomes or S9; concentration: 2 µM; time: 0.5 h
`Cc1nc2c(c(=O)n1C)CN(C(=O)[C@@H]1CCCN1C1CCN(C)CC1)C2` has a remaining compound of 61.8%.
`COc1ccc(CN2C(=O)N[C@@H](CC(=O)Nc3nc(C(C)(C)C)cs3)C2=O)cc1OC` gave a remaining compound of 5.08%.
With `Cc1cc(C)nc(N2CCn3c(nnc3C3CCCN3C)C2)n1` (centres unmarked) the remaining compound was 12.9%.
For `O=c1c2c(ccn1Cc1cc(F)ccc1F)ccn2Cc1cccnc1`, the remaining compound was 0.856%.

Sample 2 — effect on: ligand displacement; concentration: 10 µM
Target: Alpha-1A adrenergic receptor (ADRA1A, Homo sapiens, UniProt P35348)
UniProt P35348, sequence (whole entry, looked up): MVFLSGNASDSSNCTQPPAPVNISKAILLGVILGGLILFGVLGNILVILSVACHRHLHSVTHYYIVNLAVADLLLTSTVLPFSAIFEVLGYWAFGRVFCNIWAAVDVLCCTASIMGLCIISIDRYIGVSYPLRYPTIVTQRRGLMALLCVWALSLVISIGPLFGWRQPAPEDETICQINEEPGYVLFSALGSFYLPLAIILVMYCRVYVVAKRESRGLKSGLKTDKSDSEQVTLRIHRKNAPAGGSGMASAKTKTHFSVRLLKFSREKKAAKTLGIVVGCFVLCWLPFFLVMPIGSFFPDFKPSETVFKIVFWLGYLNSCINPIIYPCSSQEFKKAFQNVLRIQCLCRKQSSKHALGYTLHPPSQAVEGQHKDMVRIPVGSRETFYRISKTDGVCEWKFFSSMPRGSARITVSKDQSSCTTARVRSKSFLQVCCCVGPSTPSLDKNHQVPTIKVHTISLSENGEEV
With `C[C@H](c1ccc(F)cc1)N(Cc1cccc(C(=O)O)c1)C(=O)c1cnc2ccccc2c1` the inhibition was -18.3%.
`O=C(NS(=O)(=O)c1ccc(NCC2CCOCC2)c([N+](=O)[O-])c1)c1ccc(N2CCN(Cc3ccc(C(F)(F)F)cc3-c3ccc(Cl)cc3)CC2)cc1Oc1cnc2[nH]ccc2c1` has an inhibition of -25.5%.
`CN(C)C(=O)c1sc2nc(N3CCC(S(C)(=O)=O)CC3)cc(C(F)(F)F)c2c1N` gave an inhibition of 22.8%.
`COc1ccc2cc(OCC3(C(=O)O)CN(C(=O)c4ccc(F)cc4)C3)ccc2c1` has an inhibition of 2.52%.
`CC1CCN(c2ccnc(NCc3cn(C)cn3)n2)CC1` gave an inhibition of 15.4%.
The inhibition of `Cn1cc(Cl)c2c(Oc3c(F)cc(Nc4cc(Cl)nc(N)n4)cc3F)ccnc21` is reported as -5.31%.
For `O=C(N[C@H]1CCCCC/C=C\C2C[C@@]2(C(=O)O)NC(=O)[C@@H]2C[C@@H](Oc3ccncc3)CN2C1=O)OC1CCCC1` (some centres unmarked), the inhibition was 25.7%.
With `COc1cc(C(=O)O)ncc1C#Cc1ccccc1NS(=O)(=O)c1cccc2c(N(C)C)ccnc12` the inhibition was 13.7%.
`Cc1ncc(-c2cc(Cl)ccc2F)cc1-n1c(=O)n(CC(N)=O)c2ccccc21` gave an inhibition of 0.25%.
The inhibition of `CN1CCN(C(=O)C(C)(C)c2ccc(C(=O)Nc3cn4cc(-c5cc(C(C)(C)C)cc(C(C)(C)C)c5)ccc4n3)cc2)CC1` is reported as 66.4%.
`N#CC1(c2ccccn2)CCN(Cc2cc(C(=O)N3CCCC3)c(=O)n3ccccc23)CC1` has an inhibition of -26.4%.
The inhibition of `CCC(F)(F)c1cc(N2CCC(S(C)(=O)=O)CC2)nc2sc(C(N)=O)c(N)c12` is reported as 18.9%.
The inhibition of `Cc1ccc(-c2cnc([C@@]3(O)CC[C@H](C(=O)O)C(C)(C)C3)s2)cc1Nc1cccc(C(F)(F)F)n1` is reported as -13.7%.
`Cc1ccccc1Oc1cc(-n2c(=O)cc(C(F)(F)F)[nH]c2=O)c2ccccc2c1Cl` has an inhibition of -2.81%.

Sample 3 — cell line: HaCaT; concentration: 100 µM; time: 60 h
`N#CCC(C1CCCC1)n1cc(-c2ncnc3[nH]ccc23)cn1` (centres unmarked) gave a viability of 25.3%.
The viability of `CC1(C)S[C@@H]2[C@H](NC(=O)[C@H](C(=O)O)c3ccsc3)C(=O)N2[C@H]1C(=O)O` is reported as 126%.
`C[Se]CC[C@H](N)C(=O)O` has a viability of 131%.
`COC(=O)c1ccc2c(c1)NC(=O)/C2=C(\Nc1ccc(N(C)C(=O)CN2CCN(C)CC2)cc1)c1ccccc1` gave a viability of 112%.

Sample 4
SMILES: CC(C)(C)c1cnc(CSc2cnc(NC(=O)C3CCN(CCCCCSc4cccc5c4CN(C4CCC(=O)NC4=O)C5=O)CC3)s2)o1 (centres unmarked)
The viability was 0% (HH; CCK-8; 250 nM).
For HH; CCK-8; 200 nM: viability read 0%.
For HuT78; trypan blue exclusion; 500 nM, 48 h; relative to: untreated control: viability read 8.27% and 13.8%.
The viability was 85.1% and 88.1% (HH; CCK-8; 50 nM).
It gave 3.16% and 6.58% and 5.64% for viability (HuT78; 250 nM, 24 h).

Mixed results
The AUC(0-t), dose-normalised of `COc1ccc(-c2c(Nc3ccccn3)[nH]c3c(C4=CCCCC4)c(-c4ccccc4)nn3c2=O)cc1` is reported as 646 ng·h/mL/mg and 697 ng·h/mL/mg and 661 ng·h/mL/mg (LC-MS/MS; human, plasma; 50 mg once daily).
For `CC(C)(C(=O)O)[C@H](NC(=O)Cc1cccc(I)c1)c1ccc2oc(=O)[nH]c2c1`, the spheroid area was 1.38e+08 a.u. and 1.18e+08 a.u. and 1.32e+08 a.u. and 1.6e+08 a.u. and 1.33e+08 a.u. and 1.36e+08 a.u. (A375; Incucyte 3D growth; 30 µM, 240 h; higher = more growth).

Excerpt of the above (sample 2):
`CN(C)C(=O)c1sc2nc(N3CCC(S(C)(=O)=O)CC3)cc(C(F)(F)F)c2c1N` gave an inhibition of 22.8%.
The inhibition of `CCC(F)(F)c1cc(N2CCC(S(C)(=O)=O)CC2)nc2sc(C(N)=O)c(N)c12` is reported as 18.9%.
